{"data": "Experimental data from different studies", "note": "Every numbered part comes from another study and shows a few of its results, in no order."}
{"data": "Block 1", "target": "Interferon regulatory factor 3, full length, phosphomimetic (IRF3, Homo sapiens, UniProt Q14653, residues 1-427, S386D/S396D/S398D/S402D/T404D/S405D)", "method": "protein-binding microarray", "form": "double-stranded DNA, one strand shown", "medium": "in vitro", "concentration": "2540 nM top", "notes": "60-bp whole probe", "together with": "salmon DNA 0.4 mg/ml", "baseline": "random background probes", "reading": "higher = stronger binding", "constant ends, left off below": "GCCTAGCAC … GTCTTGATTCGCTTGACGCTGCTG", "Construct (chain)": "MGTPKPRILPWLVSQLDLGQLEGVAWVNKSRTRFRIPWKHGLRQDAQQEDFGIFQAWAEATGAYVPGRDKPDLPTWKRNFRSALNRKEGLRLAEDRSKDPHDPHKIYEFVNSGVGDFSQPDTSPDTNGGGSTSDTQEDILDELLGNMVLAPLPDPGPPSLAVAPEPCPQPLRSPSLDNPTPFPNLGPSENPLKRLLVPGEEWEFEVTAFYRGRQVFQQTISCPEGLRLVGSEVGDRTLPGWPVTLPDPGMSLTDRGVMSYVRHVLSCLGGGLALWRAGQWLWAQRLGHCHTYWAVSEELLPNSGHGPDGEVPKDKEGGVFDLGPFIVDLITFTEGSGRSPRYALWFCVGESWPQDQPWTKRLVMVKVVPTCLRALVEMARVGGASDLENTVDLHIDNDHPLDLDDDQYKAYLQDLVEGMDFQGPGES"}
{"Sequence": "ATAGGACTGGGGACTGGGTTAGTGCTA", "fitted relative affinity": "-1.05 z-score"}
{"Sequence": "GACGGACTGGACTATCGTGACGTGCTA", "fitted relative affinity": "-0.577 z-score"}
{"Sequence": "TTTTCCAGAGGCCCAGCCAGGTGCTAG", "fitted relative affinity": "1.17 z-score"}
{"Sequence": "TCAGAGCTCCTCCTTCTCACTGTGCTA", "fitted relative affinity": "0.172 z-score"}
{"Sequence": "TTAGGACTGGGACTAGGTTAGTGCTAG", "fitted relative affinity": "-0.734 z-score"}
{"Sequence": "TTAGATATCAGTTTCGAGTAGTGCTAG", "fitted relative affinity": "3.23 z-score"}
{"Sequence": "CTAGGACTGGGGTATCGGTTAGTGCTA", "fitted relative affinity": "0.101 z-score"}
{"Sequence": "TGAGTTTTCCTTCATGTGCCGTGCTAG", "fitted relative affinity": "2.4 z-score"}
{"Sequence": "TTAGTTTTCGACTTTCGGTTAGTGCTA", "fitted relative affinity": "4.12 z-score"}
{"Sequence": "TCACAGCTGTTTTTCTCACTGTGCTAG", "fitted relative affinity": "0.184 z-score"}
{"Sequence": "TTAGGTTCCGGTTTCGGGTAGTGCTAG", "fitted relative affinity": "6.37 z-score"}
{"Sequence": "GCATCTCGGAGATCTCGAAGCGTGCTA", "fitted relative affinity": "0.0716 z-score"}
{"Sequence": "ATTACTTTAGGTTCCCAGGTGTGCTAG", "fitted relative affinity": "1.37 z-score"}
{"Sequence": "TAAGAACTGAGTATCGATTAGTGCTAG", "fitted relative affinity": "0.131 z-score"}
{"Sequence": "TCACATATCGGGGTGCGCACTGTGCTA", "fitted relative affinity": "0.282 z-score"}
{"Sequence": "TTAGGACTGGACACTGGGTTGGTGCTA", "fitted relative affinity": "-0.95 z-score"}
{"Sequence": "GACCGTATCGGTATCGGGACGTGCTAG", "fitted relative affinity": "4.86 z-score"}
{"Sequence": "GATGGACTGCTTATCCTGACGTGCTAG", "fitted relative affinity": "-0.277 z-score"}
{"data": "Block 2", "target": "RNA binding protein fox-1 homolog 2, RRM domain, GST-SBP tag (RBFOX2, Homo sapiens, UniProt O43251-10, residues 100-194)", "method": "RNA Bind-n-Seq", "form": "RNA", "medium": "in vitro", "concentration": "365 nM", "notes": "natural RNA segment, single round, ends assumed", "baseline": "no-protein control", "reading": "higher = stronger binding", "constant ends, left off below": "GGGAGUUCUACAGUCCGACGAUC … UGGAAUUCUCGGGUGCCAA", "Residues (chain)": "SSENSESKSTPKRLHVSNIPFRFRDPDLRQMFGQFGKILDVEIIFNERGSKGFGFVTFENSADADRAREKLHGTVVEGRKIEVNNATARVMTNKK"}
{"Sequence": "CUAAAAAGCUCUGAAGUGUUUGUAUAUUUGAAAUACCUCAAUAAAGAGAGAGCUCAUUGACUGUAAAGAGAUGCUGGGGCUUUCUGUACAAGGCUAGCAUCUGGGUGCUG", "RBNS enrichment (R)": 0.502}
{"Sequence": "CACUGAAUAAAAACCUCCUGAACUGGGAACAAAGAUCUACAGGCAAGCAAGAUGCCCACACAACAGGCUUAUUUUCUGUGAAGGAACCAACUGAUCUCCCCCACCCUUGG", "RBNS enrichment (R)": 0.741}
{"Sequence": "ACCACAGCCUGUGUUGACAGAUGUCUGUCUGUCCCUGUGCAAUCCAGUCUGGGCCUCAGACUCAGACUGCUGUAUCUAGCCUACGUUGUCACAAUUUCCUUCUCUGUUAA", "RBNS enrichment (R)": 0.244}
{"Sequence": "CCUUUUGGAGUCAGUCUCCAUGCAGUAAACAGACCCAGCAGAACCUGCCCGUGGUGAGCUCAGCCAAGACUUGGCUCUCCAUGUUCCAGCCUCCGUCUGUGACUGGGUGG", "RBNS enrichment (R)": 0.249}
{"Sequence": "AAAAAAUGGGUCUCCUUCUGGGCUCCAGGAUUGUCUCCCCACUCCAGCAUCCCCAAACUGGUACUCCCUGACCCAGGGCCCCAAACCUGGGCUCUUACAGAGCCUCCAUG", "RBNS enrichment (R)": 0.823}
{"Sequence": "CUUUCCUUUGUUUCCUUGGGUGAAUGCAGGAGCAGCAGUGGCUGCCCUUCCCACCUGGACAGUGGUGUGUGUAGAAAGCCAGCUGGAUGUUUGUGGUGGGGCCUCAUGGU", "RBNS enrichment (R)": 7.95}
{"Sequence": "CUGAGAAACUCCAGCCUCAAGAAUAUAAUCUCAUUCUAACCUUCACCUCUUCAACUUCUUCUGUGGCUUCUGUGUUACAUUGUUGCCCUGGUUCUCAUAUAUGCUGUGUA", "RBNS enrichment (R)": 1.87}
{"Sequence": "GAGGCUUGUUUUGUUGUCUGUGUCUGUCUGAAUAACCUGCGUGUCUAAAACCACGUGAAAUGUGAAUGAUUAUUGGCAAUAUUACCUUGACAGAAUCAUGGGACUUUGAG", "RBNS enrichment (R)": 0.551}
{"data": "Block 3", "target": "Histone acetyltransferase KAT6A, winged helix 2, GST fusion (KAT6A, Homo sapiens, UniProt Q92794, residues 85-181)", "method": "protein binding microarray", "form": "double-stranded DNA, one strand shown", "medium": "in vitro", "concentration": "not given", "notes": "8-mer, flanks averaged, mean of 2 arrays, mostly near background", "baseline": "not given", "reading": "higher = stronger binding", "Target sequence (chain)": "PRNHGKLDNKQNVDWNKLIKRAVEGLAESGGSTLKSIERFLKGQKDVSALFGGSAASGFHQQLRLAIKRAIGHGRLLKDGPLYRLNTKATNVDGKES"}
{"Sequence": "GTGACGAA", "E-score": 0.0589}
{"Sequence": "CAGTTCCA", "E-score": -0.0111}
{"Sequence": "CTTAACAC", "E-score": 0.0383}
{"Sequence": "ATCAGTTG", "E-score": -0.127}
{"Sequence": "TCCCGGCA", "E-score": 0.0998}
{"Sequence": "ACGGAAAG", "E-score": -0.0691}
{"Sequence": "TCAAGGGA", "E-score": -0.0197}
{"Sequence": "AGTCCAAC", "E-score": -0.067}
{"Sequence": "CAACTGCC", "E-score": 0.0924}
{"Sequence": "CTAAATGA", "E-score": 0.0102}
{"Sequence": "ATCATGAG", "E-score": -0.0547}
{"Sequence": "ACTGAGAC", "E-score": 0.0305}
{"Sequence": "CTCGCCGA", "E-score": 0.056}
{"Sequence": "AAGCGGCG", "E-score": 0.164}
{"Sequence": "AATTGCAA", "E-score": -0.0049}
{"Sequence": "AAGGCGTA", "E-score": -0.0598}
{"Sequence": "ACGGCTCC", "E-score": 0.089}
{"Sequence": "AGAGAACG", "E-score": -0.0218}
{"Sequence": "TGACATCA", "E-score": -0.0794}
{"Sequence": "CGTTACCC", "E-score": -0.0913}
{"Sequence": "GTCACAAA", "E-score": 0.104}
{"Sequence": "CGTAGGTA", "E-score": -0.0406}
{"Sequence": "AAATCCAG", "E-score": 0.042}
{"Sequence": "GACAGGTA", "E-score": -0.0941}
{"Sequence": "GCTCGGTA", "E-score": 0.000405}
{"data": "Block 4", "target": "Hepatocyte nuclear factor 3-alpha (Foxa1, Mus musculus, UniProt P35582, residues 1-468, full length assumed)", "method": "EMSA with sequencing", "form": "double-stranded DNA, one strand shown", "medium": "in vitro", "concentration": "10 and 20 nM", "notes": "whole designed probe, mean of two concentrations, ends assumed", "baseline": "negative control set to 0", "reading": "higher = stronger binding", "constant ends, left off below": "GTGAGCGGTGCCCATTGATGGGGAAC … TTTCACTGGGATCGTGGGGAC", "UniProt P35582, sequence (whole entry, looked up)": "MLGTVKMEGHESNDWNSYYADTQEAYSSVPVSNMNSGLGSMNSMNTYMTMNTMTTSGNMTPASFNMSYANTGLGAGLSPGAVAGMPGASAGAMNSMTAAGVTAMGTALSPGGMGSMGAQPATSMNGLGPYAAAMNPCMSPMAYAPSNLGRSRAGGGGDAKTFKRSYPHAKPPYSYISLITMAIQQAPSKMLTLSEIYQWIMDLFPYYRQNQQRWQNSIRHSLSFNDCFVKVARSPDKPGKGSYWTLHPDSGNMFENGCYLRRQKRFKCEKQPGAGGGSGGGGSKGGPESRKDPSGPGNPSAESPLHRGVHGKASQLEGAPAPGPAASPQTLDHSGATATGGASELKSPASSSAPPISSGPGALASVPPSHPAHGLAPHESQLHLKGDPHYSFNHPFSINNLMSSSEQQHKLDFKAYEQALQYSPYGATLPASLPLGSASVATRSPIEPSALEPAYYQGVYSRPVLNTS"}
{"Sequence": "AGACAAAAAATGTAGTTGTTCAACAGCTCAGGGAAGAAAGCCTGAGCTTGCCACAGGAGGAGACAGGGCTAAGGCTGGGGAGTTGGGGGGAGTGTAATTTAAGTAGAGGACTGGGCAGAGCTACAAGAAATATTTAGCATTCCTGGCTTCCCACAAAGGGTAGGTCAAGGAGAGGGAATGAGCAGTTGGGATG", "normalised bound fraction": "-0.0482 ratio"}
{"Sequence": "AGGTGAAGTCGGCACCCTTGTCTTTGAGCTCACACAGGTGGCTGAGCTAAATAAGTGCTGAAAGGAGCTGGGTGCACTCTCCTGAGTCACCTTAGATGACTCTGGAAGCACTGTAAACTTGGCATCAGAAGGAGATTATAAAGTGCTTTTGTTCCTAAGCTTTATAAAGTGTGTGTGTATGCATGTGGGTTTC", "normalised bound fraction": "-0.0392 ratio"}
{"Sequence": "GTGGAGTTAATGCAGATTGACGCTGAAGTTCATGTGGGGGCACAGACGTCTGATGGTGCCCAAGAAACCCAGGAGACAAAACTGATGCTTCCCTGTGGACACTGCAGCATCCTCTAAAGCCGCTGTAATTAAGGTATGTGACACATGACCAGGAAGCAGACAGATGGACAAAAATGGAATATCTGGAAATAGA", "normalised bound fraction": "-0.00234 ratio"}
{"Sequence": "ATCTTCCCCCTCTTCCTTGCCCCACCAGCTCACCTTCCCGGGTTATTTGCACAAAGGAAAATAAATAAAGCCGGCATTCGTTAACCCTCTTCACGCGCATACTGCTGTTTGCTCTGCATCTAACATGGTCCTTACGCGAGGCGTGGCTCCGGGAGAGCAAAGCACCGTGTCAGGCGCATGATCCGGGGTGGCC", "normalised bound fraction": "0.382 ratio"}
{"Sequence": "TTTCCAGCCCTTAGTTTCTGGCATTTAACCTGACTCTGGTCCCTGAATGGCATGGGAGTGCTTTCAACCACAGGTTTCCACATTCATGCAAAAGCAAACAAGTGTGATCTGACTCATTCCTACAGAGATCTTTATTTGCTTTGTGTTTCCAATGGAGAAAGAGCTTGGGAAGGGAGGATCCTAATTGTCTAAA", "normalised bound fraction": "0.541 ratio"}
{"note": "A few entries again (block 2):"}
{"Sequence": "ACCACAGCCUGUGUUGACAGAUGUCUGUCUGUCCCUGUGCAAUCCAGUCUGGGCCUCAGACUCAGACUGCUGUAUCUAGCCUACGUUGUCACAAUUUCCUUCUCUGUUAA", "RBNS enrichment (R)": 0.244}
{"Sequence": "CCUUUUGGAGUCAGUCUCCAUGCAGUAAACAGACCCAGCAGAACCUGCCCGUGGUGAGCUCAGCCAAGACUUGGCUCUCCAUGUUCCAGCCUCCGUCUGUGACUGGGUGG", "RBNS enrichment (R)": 0.249}
{"Sequence": "AAAAAAUGGGUCUCCUUCUGGGCUCCAGGAUUGUCUCCCCACUCCAGCAUCCCCAAACUGGUACUCCCUGACCCAGGGCCCCAAACCUGGGCUCUUACAGAGCCUCCAUG", "RBNS enrichment (R)": 0.823}
{"Sequence": "CUUUCCUUUGUUUCCUUGGGUGAAUGCAGGAGCAGCAGUGGCUGCCCUUCCCACCUGGACAGUGGUGUGUGUAGAAAGCCAGCUGGAUGUUUGUGGUGGGGCCUCAUGGU", "RBNS enrichment (R)": 7.95}
{"Sequence": "CUGAGAAACUCCAGCCUCAAGAAUAUAAUCUCAUUCUAACCUUCACCUCUUCAACUUCUUCUGUGGCUUCUGUGUUACAUUGUUGCCCUGGUUCUCAUAUAUGCUGUGUA", "RBNS enrichment (R)": 1.87}
{"Sequence": "GAGGCUUGUUUUGUUGUCUGUGUCUGUCUGAAUAACCUGCGUGUCUAAAACCACGUGAAAUGUGAAUGAUUAUUGGCAAUAUUACCUUGACAGAAUCAUGGGACUUUGAG", "RBNS enrichment (R)": 0.551}
